Assay results from different studies.
Every numbered part comes from another study and shows a few of its results, in no order. Changes are numbered by the printed parent chain.

Study 1 — target: CCND1, cyclin fold, Cln2 fusion (human); method: yeast growth competition, sequencing; sample: yeast; notes: weak parent motif; reference: not given; reading: higher = stronger binding; starting sequence: viral docking peptide; KKVKRRLFETREL
Change	normalised enrichment score
AKVKRRLFETREL [K1A]	0.296
KKVKKRLFETREL [R5K]	0.301
KKVKRALFETREL [R6A]	0.309
KKVARRLFETREL [K4A]	-0.133

Study 2 — method: protein-binding microarray; molecule type: double-stranded DNA, one strand shown; sample: in vitro; tested at: 940 nM top; notes: 60-bp whole probe; together with: salmon DNA 0.4 mg/ml; reference: random background probes; reading: higher = stronger binding; shared flanks, not repeated: GCCTAGCAC … GTCTTGATTCGCTTGACGCTGCTG
Target: Interferon regulatory factor 5, full length, phosphomimetic (IRF5, Homo sapiens, UniProt Q13568-2, residues 1-514, S451D/S453D/S456D/S462D)
Sequence	fitted relative affinity
AACGAACTGGGGACTGGAGACGTGCTA	0.247 z-score
GACGGTCTCCTACTGCTGACGTGCTAG	-0.158 z-score
AGATACCTTTAACAGTGCCTGTGCTAG	-0.0904 z-score
GACGGTTTCGGGTATTGGGACGTGCTA	8.5 z-score
TCAGGTATCCTACTGCTTTAGTGCTAG	0.249 z-score
GACGGACTCGGTCTCGGGACGTGCTAG	0.248 z-score
GACGATTTCAGTTCCGAGAGGTGCTAG	0.522 z-score
AACGGTTTCGGTATCGGGACGTGCTAG	12.9 z-score

Study 3 — observed: peptide-MHC binding; molecule type: peptide; tested at: concentration not given
Target: HLA class I histocompatibility antigen, C alpha chain, allele C*04:01 (Homo sapiens, UniProt P10321)
Sequence	binding
ETTNWLWAF	inactive
RVMAPRALL	inactive
SAYYLDIGF	inactive
ISPRNYFTF	inactive
VYWENEVSI	inactive
REWFMDLNL	inactive

Study 4 — method: RNA Bind-n-Seq; molecule type: RNA; sample: in vitro; tested at: 20 nM; notes: 6-mer, flanks averaged, single round; together with: 150 mM KCl; reference: input library; reading: higher = stronger binding
Target: TAR DNA-binding protein 43, full length, His tag (TARDBP, Homo sapiens, UniProt Q13148, residues 1-414)
Sequence	6-mer enrichment (R)
GUCAAA	0.725
GAAUCU	0.625
UUUACG	0.634
AUGGAC	0.849
GUAAUA	0.682
CCCUGG	0.867
AGUUUC	0.567
UCCGCU	0.588

Some of these lines once more (study 3):
Sequence	binding
RVMAPRALL	inactive
SAYYLDIGF	inactive
REWFMDLNL	inactive
